Experimental data collected from several papers.
Parts stem from different laboratories: compare values within a part only. “And” joins repeats or separate records; there may be more than shown.
UniProt Q01959, sequence (whole entry, looked up): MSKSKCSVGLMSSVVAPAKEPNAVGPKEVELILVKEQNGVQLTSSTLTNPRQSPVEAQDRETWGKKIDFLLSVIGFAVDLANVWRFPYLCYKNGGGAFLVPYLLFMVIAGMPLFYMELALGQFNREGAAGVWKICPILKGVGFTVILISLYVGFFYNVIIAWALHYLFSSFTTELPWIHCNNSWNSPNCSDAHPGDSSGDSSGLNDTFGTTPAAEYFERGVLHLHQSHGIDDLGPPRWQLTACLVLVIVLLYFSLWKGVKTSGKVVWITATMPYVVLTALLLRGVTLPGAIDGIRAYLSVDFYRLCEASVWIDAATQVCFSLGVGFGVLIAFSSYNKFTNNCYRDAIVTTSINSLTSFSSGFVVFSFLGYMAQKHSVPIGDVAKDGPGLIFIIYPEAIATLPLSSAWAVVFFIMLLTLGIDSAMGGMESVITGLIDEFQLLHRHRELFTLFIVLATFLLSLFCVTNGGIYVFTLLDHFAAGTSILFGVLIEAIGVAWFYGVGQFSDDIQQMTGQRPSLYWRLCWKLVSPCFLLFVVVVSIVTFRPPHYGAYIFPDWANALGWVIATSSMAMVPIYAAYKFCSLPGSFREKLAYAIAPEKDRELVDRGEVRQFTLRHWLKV
UniProt P20309, sequence (whole entry, looked up): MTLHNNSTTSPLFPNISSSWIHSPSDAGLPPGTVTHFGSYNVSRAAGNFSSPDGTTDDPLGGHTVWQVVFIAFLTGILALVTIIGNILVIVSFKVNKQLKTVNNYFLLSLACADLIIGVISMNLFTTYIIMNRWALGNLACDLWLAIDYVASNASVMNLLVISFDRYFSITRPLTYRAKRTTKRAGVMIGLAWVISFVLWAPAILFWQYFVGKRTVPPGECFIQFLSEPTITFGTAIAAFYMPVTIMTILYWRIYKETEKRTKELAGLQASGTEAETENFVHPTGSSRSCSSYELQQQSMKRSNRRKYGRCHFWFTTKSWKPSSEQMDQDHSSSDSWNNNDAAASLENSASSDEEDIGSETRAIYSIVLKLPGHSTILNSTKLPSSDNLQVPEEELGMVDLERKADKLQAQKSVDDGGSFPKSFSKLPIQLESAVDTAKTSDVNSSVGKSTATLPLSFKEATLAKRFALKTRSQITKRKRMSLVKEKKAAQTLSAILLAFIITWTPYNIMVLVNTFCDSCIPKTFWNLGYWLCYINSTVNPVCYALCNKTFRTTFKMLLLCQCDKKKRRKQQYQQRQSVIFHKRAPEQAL
UniProt P11229, sequence (whole entry, looked up): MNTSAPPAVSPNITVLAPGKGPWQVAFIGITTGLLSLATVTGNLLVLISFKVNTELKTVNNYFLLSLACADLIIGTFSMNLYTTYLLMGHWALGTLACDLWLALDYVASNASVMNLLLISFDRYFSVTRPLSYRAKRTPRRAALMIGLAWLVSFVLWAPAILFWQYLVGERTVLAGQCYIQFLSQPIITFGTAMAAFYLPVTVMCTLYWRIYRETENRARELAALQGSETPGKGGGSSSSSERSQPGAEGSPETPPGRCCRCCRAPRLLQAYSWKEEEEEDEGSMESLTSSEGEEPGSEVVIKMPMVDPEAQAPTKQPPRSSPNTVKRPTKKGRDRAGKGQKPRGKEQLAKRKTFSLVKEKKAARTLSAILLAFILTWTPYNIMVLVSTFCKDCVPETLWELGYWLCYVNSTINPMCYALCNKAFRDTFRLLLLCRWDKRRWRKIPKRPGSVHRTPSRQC
UniProt P31645, sequence (whole entry, looked up): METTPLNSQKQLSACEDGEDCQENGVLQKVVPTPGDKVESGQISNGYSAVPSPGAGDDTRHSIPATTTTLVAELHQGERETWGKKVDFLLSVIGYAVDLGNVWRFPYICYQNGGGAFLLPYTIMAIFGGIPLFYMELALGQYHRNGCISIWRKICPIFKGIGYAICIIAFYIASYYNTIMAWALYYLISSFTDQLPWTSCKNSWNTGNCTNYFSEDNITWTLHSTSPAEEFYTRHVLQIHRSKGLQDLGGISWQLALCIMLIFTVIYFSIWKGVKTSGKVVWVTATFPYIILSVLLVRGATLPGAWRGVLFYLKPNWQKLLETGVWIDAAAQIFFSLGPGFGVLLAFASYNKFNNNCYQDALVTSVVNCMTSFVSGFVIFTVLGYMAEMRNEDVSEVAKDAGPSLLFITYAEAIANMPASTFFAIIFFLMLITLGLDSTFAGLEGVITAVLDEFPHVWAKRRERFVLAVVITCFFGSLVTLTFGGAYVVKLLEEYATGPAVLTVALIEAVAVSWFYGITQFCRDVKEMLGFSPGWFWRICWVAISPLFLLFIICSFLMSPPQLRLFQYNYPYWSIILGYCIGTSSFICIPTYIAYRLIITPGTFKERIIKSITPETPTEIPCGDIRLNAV
UniProt P23975, sequence (whole entry, looked up): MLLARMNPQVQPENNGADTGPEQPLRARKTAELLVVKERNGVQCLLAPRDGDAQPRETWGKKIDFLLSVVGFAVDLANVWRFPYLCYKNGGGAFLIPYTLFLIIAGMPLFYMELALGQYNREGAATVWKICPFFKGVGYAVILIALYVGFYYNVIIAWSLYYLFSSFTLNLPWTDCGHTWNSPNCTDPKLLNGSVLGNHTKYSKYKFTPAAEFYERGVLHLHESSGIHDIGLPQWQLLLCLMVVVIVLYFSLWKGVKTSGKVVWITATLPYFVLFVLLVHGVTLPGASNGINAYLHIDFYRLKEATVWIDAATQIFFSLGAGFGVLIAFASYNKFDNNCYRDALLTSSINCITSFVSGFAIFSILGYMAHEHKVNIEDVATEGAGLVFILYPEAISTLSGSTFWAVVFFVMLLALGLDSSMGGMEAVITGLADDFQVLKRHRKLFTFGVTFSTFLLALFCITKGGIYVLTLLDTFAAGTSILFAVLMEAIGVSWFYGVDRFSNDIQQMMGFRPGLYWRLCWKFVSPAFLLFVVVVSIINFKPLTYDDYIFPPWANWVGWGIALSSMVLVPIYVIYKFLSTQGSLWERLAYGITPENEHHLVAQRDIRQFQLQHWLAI
UniProt P21918, sequence (whole entry, looked up): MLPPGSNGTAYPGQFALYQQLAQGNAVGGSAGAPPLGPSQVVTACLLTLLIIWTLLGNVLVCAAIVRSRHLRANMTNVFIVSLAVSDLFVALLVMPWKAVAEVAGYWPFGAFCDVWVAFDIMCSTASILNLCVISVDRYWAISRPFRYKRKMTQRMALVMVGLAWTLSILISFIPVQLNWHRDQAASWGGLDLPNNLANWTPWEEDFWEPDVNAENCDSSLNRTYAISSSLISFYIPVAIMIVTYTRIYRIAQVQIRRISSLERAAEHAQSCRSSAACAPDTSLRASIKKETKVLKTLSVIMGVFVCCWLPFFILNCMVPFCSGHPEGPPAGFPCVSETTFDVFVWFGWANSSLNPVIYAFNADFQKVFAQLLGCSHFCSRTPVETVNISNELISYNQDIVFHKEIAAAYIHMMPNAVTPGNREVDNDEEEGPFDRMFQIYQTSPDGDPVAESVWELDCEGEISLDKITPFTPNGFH
UniProt P41143, sequence (whole entry, looked up): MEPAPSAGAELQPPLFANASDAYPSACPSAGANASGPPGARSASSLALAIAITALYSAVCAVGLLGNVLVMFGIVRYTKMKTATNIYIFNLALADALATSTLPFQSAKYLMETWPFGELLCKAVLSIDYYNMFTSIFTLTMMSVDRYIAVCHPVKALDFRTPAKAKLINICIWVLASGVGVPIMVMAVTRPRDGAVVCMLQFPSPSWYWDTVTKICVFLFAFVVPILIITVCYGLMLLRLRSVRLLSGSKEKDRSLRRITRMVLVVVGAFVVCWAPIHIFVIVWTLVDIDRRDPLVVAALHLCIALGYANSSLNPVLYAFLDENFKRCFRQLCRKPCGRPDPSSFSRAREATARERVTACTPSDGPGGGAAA
UniProt P28335, sequence (whole entry, looked up): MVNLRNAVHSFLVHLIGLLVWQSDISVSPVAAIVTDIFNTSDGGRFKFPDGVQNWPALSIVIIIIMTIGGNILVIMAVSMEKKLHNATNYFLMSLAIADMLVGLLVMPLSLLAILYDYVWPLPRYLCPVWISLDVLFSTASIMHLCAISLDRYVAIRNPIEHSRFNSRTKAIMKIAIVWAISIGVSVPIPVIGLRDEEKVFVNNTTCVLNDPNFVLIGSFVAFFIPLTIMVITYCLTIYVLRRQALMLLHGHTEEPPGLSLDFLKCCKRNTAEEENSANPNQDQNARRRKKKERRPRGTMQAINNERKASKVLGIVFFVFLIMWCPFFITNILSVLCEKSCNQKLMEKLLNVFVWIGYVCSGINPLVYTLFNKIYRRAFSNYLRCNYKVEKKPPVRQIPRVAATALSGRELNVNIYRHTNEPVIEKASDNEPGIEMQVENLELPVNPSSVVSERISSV
UniProt P35372, sequence (whole entry, looked up): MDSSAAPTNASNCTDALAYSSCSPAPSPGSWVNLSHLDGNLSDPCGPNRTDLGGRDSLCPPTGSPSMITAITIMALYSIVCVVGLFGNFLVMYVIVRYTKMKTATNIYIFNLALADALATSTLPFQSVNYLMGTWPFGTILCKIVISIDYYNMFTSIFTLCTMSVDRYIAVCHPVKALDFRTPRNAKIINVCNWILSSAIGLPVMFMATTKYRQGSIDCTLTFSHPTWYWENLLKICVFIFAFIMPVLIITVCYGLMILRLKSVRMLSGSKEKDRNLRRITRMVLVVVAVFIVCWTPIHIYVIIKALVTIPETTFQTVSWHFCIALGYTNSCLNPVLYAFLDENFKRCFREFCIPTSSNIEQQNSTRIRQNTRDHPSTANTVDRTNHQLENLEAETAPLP

Sample 1 — organism: Cryptosporidium parvum; method: qPCR; host: IFN-γ knockout mouse
Structure (SMILES): CNC(=O)c1ccc(-c2cnn3ccc(C(=O)N(C)c4ccc(Cl)c(C(=O)OC)c4)cc23)cc1
sample	dose	time	faecal oocyst shedding
–	10 mg/kg	day 1 post treatment	6.19 log oocysts/g faeces
faeces	1 mg/kg	day 3 post treatment	6.38 log oocysts/g faeces and 6.34 log oocysts/g faeces and 6.5 log oocysts/g faeces
–	3 mg/kg	day 3 post treatment	5.82 log oocysts/g faeces
–	1 mg/kg	day 1 post treatment	6.46 log oocysts/g faeces
–	3 mg/kg	day 1 post treatment	6.38 log oocysts/g faeces
faeces	3 mg/kg	day 5 post treatment	6.34 log oocysts/g faeces and 5.58 log oocysts/g faeces and 6.35 log oocysts/g faeces
faeces	10 mg/kg	day 3 post treatment	4.59 log oocysts/g faeces and 5.23 log oocysts/g faeces and 4.52 log oocysts/g faeces
–	10 mg/kg	day 5 post treatment	4.1 log oocysts/g faeces

Sample 2 — cell line: mouse MPNST tumor cells; method: high-content immunofluorescence imaging; item: nuclear SOX9; tested at: 10 µM; time: 12 h; setting: mean of 2 replicates; baseline: DMSO control; reading: higher = more nuclear SOX9
SMILES	nuclear SOX9 intensity
Oc1ccc2c3c1O[C@H]1c4oc5ccccc5c4C[C@@]4(O)[C@@H](C2)N(CC2CC2)CC[C@]314	119 % of DMSO
C[N+]12CCC(CC1)C(OC(=O)C(O)(c1ccccc1)c1ccccc1)C2 (stereo not drawn)	103 % of DMSO
Cc1cccc(C)c1NC(=O)CN1CCCC1=O	99.4 % of DMSO
Cc1ccc(C23CNCC2C3)cc1 (stereo not drawn)	101 % of DMSO

Sample 3 — SMILES: CCNC(=O)c1cc2c(N3CCOC[C@@H]3C)ccnc2[nH]1; effect on: ligand displacement; method: radioligand; tested at: 10 µM
target	inhibition [%]
Kappa-type opioid receptor (OPRK1, Homo sapiens, UniProt P41145)	13.1
Sodium-dependent serotonin transporter (SLC6A4, Homo sapiens, UniProt P31645)	-17.3
D(1B) dopamine receptor (DRD5, Homo sapiens, UniProt P21918)	34.3
5-hydroxytryptamine receptor 2C (HTR2C, Homo sapiens, UniProt P28335)	-4.02
Muscarinic acetylcholine receptor M3 (CHRM3, Homo sapiens, UniProt P20309)	-11.6
Mu-type opioid receptor (OPRM1, Homo sapiens, UniProt P35372)	24.8
Sodium-dependent dopamine transporter (SLC6A3, Homo sapiens, UniProt Q01959)	25.5
Sodium-dependent noradrenaline transporter (SLC6A2, Homo sapiens, UniProt P23975)	40.2
Muscarinic acetylcholine receptor M1 (CHRM1, Homo sapiens, UniProt P11229)	21.7
5-hydroxytryptamine receptor 2A (HTR2A, Homo sapiens, UniProt P28223)	-7.89
Delta-type opioid receptor (OPRD1, Homo sapiens, UniProt P41143)	-0.04

Mixed results
Compound	target	effect on	action	tested at	quantity	result
CC1(C)O[C@@H]1COc1c2occc2cc2ccc(=O)oc12	Calcium/calmodulin-dependent protein kinase type II subunit alpha (CAMK2A, Homo sapiens, UniProt Q9UQM7)	enzyme activity	inhibitor	10 µM	inhibition	-14%

A few entries again (sample 3):
target	inhibition [%]
Kappa-type opioid receptor (OPRK1, Homo sapiens, UniProt P41145)	13.1
Sodium-dependent serotonin transporter (SLC6A4, Homo sapiens, UniProt P31645)	-17.3
D(1B) dopamine receptor (DRD5, Homo sapiens, UniProt P21918)	34.3
